Experimental data of several laboratories.
Each line is one published result; not all experiments were run side by side. Numbers after ± are the reported error. ≈ marks a conversion by molar mass, not a printed value.
Sequence of UniProt P50052 (whole entry, unmodified, looked up): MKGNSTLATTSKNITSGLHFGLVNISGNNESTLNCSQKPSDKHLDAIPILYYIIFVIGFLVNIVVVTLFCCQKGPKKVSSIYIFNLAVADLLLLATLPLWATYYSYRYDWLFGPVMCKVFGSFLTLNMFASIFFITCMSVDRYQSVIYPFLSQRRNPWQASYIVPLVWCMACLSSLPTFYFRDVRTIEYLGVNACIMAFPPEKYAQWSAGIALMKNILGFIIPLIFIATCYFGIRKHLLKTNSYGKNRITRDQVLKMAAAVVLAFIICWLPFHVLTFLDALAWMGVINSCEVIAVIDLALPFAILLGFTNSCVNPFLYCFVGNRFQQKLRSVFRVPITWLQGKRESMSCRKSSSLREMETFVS

`CCCCC/C=C/C(=O)CCc1ccc(O)c(OC)c1` gave an IC50 of 1.03 µg/mL (mouse mAb 1-D6; antibody binding, indirect competitive ELISA; with: coating antigen 3-OVA).
`CCCC[C@H](NC(=O)CCCCCCCNC(=O)CN1CCN(CC(=O)O)CCN(CC(=O)O)CC1)C(=O)N[C@H]1CC(=O)NCCCC[C@@H](C(N)=O)NC(=O)[C@H](Cc2c[nH]c3ccccc23)NC(=O)[C@H](CCCNC(=N)N)NC(=O)[C@@H](Cc2ccccc2)NC(=O)[C@H](Cc2c[nH]cn2)NC1=O` [copper-64 labelled] has a tissue uptake of 1.54 ± 0.16 %ID/g (C57 mice, tumor; intravenous, 0.37 MBq, 24 h).
The EC90 of `C=C(C)[C@@H]1CC[C@]2(C(=O)n3ccnc3)CC[C@]3(C)[C@H](CC[C@@H]4[C@@]5(C)CCCNC(C)(C)[C@@H]5CC[C@]43C)[C@@H]12` is reported as greater than 240 nM (Human cytomegalovirus; cytopathic effect; HFF, AD169).
For `CN(C)c1cc(CNCC(=O)C(C)(C)C)c(O)c2c1C[C@H]1C[C@H]3[C@H](N(C)C)C(O)=C(C(N)=O)C(=O)[C@@]3(O)C(O)=C1C2=O`, the MIC was 0.125 µg/mL (≈ 0.214 µM) (Streptococcus pneumoniae; microbial growth, broth dilution).
`COc1cc(CCC(C)=O)ccc1O` has an IC50 of 2.77 µg/mL (mouse mAb 1-D6; antibody binding, indirect competitive ELISA; with: coating antigen 2-OVA).
`CN(C)c1cc(CN2CCCCC2)c(O)c2c1C[C@H]1C[C@H]3[C@H](N(C)C)C(O)=C(C(N)=O)C(=O)[C@@]3(O)C(O)=C1C2=O` has an MIC of less than 0.06 µg/mL (Streptococcus pneumoniae; microbial growth, broth dilution).
For `CC(C)(C)NCC(SS(=O)(=O)O)c1ccccc1` (stereo not shown), “female worm burden reduction” read 95% (Schistosoma mansoni; mice; oral, 400 mg/kg single dose, 21 days post-infection; baseline: vehicle).
For `CN(C)c1cc(CNC(=O)C(C)(C)C)c(O)c2c1C[C@H]1C[C@H]3[C@H](N(C)C)C(O)=C(C(N)=O)C(=O)[C@@]3(O)C(O)=C1C2=O`, the MIC was 2 µg/mL (≈ 3.5 µM) (Streptococcus pneumoniae; ATCC 700905, Tet M ribosome protection).
For `C=C(C)[C@@H]1CCC=C2CC[C@]3(C)[C@H](CC[C@@H]4[C@@]5(C)CCCNC(C)(C)[C@@H]5CC[C@]43C)[C@H]21`, antiviral activity read “inactive” (Human cytomegalovirus; cytopathic effect; HFF, AD169; concentration not given).
`C[C@@H](c1ccn(Cc2ccc(F)c(C(F)(F)F)c2)n1)[C@](O)(Cn1cnnn1)c1ccc(F)cc1F` has an MIC of less than 0.008 µg/mL (Candida tropicalis; growth, broth microdilution; 2718; 24 h, 30 °C, ≥50% inhibition).
The EC50 of `Cc1ccc2nc(-c3ccccc3)c(CN3CCN(c4ccc(Cl)cc4)CC3)n2c1` is reported as 1900 nM (Trypanosoma cruzi; 3T3 host cells, Tulahuen beta-galactosidase; 6 days).
`CC(=O)c1c(O)c(C)c(O)c2c1OC1=CC(=O)/C3=C(/C)N[C@H](C(=O)O)CC1=CC=CC=C[C@@]2(C)C3=O` has an MFC of 25.4 µM (≈ 12.5 µg/mL) (Candida tropicalis; microbial killing).
With `CCOC(=O)c1c(C(C)C)oc2nc(N3CCN(c4ccccc4)CC3)ccc12` the EC50 was 11000 nM (Trypanosoma cruzi; 3T3 host cells, Tulahuen beta-galactosidase; 6 days).
The inhibition of `CC(C)CC(=O)N[C@H](C(=O)N[C@H](C(=O)N[C@@H](CC(C)C)[C@@H](O)CC(=O)N[C@@H](C)C(=O)N[C@@H](CC(C)C)[C@@H](O)CC(=O)O)C(C)C)C(C)C` is reported as 7% (Saccharomyces cerevisiae; protein secretion; BY4742 wild type; 25 µM).
The EC50 of `Nc1ncnc2c1c(-c1ccc(Cl)cc1)cn2[C@H]1C[C@H](O)[C@@H](CO)O1` is reported as 460 ± 130 nM (Trichomonas vaginalis; resorufin; G3, metronidazole-sensitive; 24 h + 2 h, 2% O2).
For `O=Cc1c(O)ccc2ccccc12`, “log2 fold change” read -3.34 (HUVEC; RNA sequencing, measured: SOX18; 75 µM, 24 h; baseline: DMSO).
For `[64Cu+2].c1ccc(CNCc2ccc(CN3CCCN4CCNCCCN(CC4)CC3)cc2)nc1`, the tissue uptake was 3.62 ± 0.63 %ID/g (CXCR4 (human); NOD/SCID mice, U87 xenografts, small intestine; 480 min post-injection).
With `CN(C)CCCSC(=S)N1CCN(C(=O)/C=C/c2coc3ccccc3c2=O)CC1` the inhibition was 73.4% (PVY; virus inactivation; 500 µg/mL, mean).
`COc1ccc(C2OC(=O)c3ccc(C(C)C)c(O)c32)cc1OC` (stereo not shown) gave an IC50 of 89100 nM (Naegleria fowleri; parasite growth, resazurin; ATCC30808; 48 h).
`NS(=O)(=O)Nc1ncnc(OCCOc2ncc(Br)cn2)c1-c1ccc(Br)cc1` has a Vmax of 458 ± 25 pmol/min/mg (Eadie-Hofstee plot, measured: compound formation; female Sprague-Dawley rat, liver microsomes; 1500 mg/kg daily, 4 weeks).
For `CCCc1nc2ccc(N(Cc3ccco3)C(=O)c3ccccc3)cc2c(=O)n1Cc1ccc(-c2ccccc2-c2nnn[nH]2)cc1`, the Ki was 38.9 nM (Type-2 angiotensin II receptor (AGTR2, Homo sapiens, UniProt P50052, I304A); ligand displacement, radioligand; cell membranes).
`O=C(C1CCN(c2nnnn2-c2ccccc2)CC1)N1CCCc2ccccc21` gave a lag phase of 48 h (Plasmodium falciparum; parasite reduction ratio; 3D7; 10 x IC50).

For quick reference, copied from above:
For `O=Cc1c(O)ccc2ccccc12`, “log2 fold change” read -3.34 (HUVEC; RNA sequencing, measured: SOX18; 75 µM, 24 h; baseline: DMSO).
